Results collected from several papers.
Numbered parts are unrelated; each lists some results of a single study. Positions count from the first letter of the parent shown.

Sample 1
Target: ABI1, truncated, D143A, DHFR fusion (Arabidopsis thaliana)
Method: DHFR PCA, deep sequencing
Medium: yeast
Setting: methotrexate growth selection, single substitutions
With: (+)-ABA 58 µM
Relative to: wild-type fitted maximum
Reading: higher = stronger binding
Starting sequence: PYL1, truncated, DHFR fusion (Arabidopsis thaliana); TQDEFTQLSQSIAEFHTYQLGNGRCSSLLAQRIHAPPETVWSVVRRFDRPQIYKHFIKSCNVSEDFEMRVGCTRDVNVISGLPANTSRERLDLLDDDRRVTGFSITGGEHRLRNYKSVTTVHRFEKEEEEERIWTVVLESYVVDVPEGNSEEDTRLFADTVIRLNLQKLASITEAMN; partner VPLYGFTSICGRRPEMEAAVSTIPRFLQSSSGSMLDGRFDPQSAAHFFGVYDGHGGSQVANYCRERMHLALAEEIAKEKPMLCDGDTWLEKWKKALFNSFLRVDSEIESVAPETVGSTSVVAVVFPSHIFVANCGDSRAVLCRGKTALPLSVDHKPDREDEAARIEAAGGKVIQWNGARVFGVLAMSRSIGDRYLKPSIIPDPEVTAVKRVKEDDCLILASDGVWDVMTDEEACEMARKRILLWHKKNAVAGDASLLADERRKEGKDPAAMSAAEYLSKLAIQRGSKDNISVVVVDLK
`S140P` — result for “relative binding score”: 12.7%.
`D3H`: “relative binding score” 80.2%.
`Q51M` — result for “relative binding score”: 54.6%.
`I33A` — result for “relative binding score”: 27.4%.
Under “relative binding score”, `L169K` is recorded as -2.96%.
`D3A`: “relative binding score” 90.2%.
`E174I`: “relative binding score” 55.7%.
`D96N` — result for “relative binding score”: 70.3%.
For `I33D`, “relative binding score” read -9.05%.
`H122L` — result for “relative binding score”: 33.1%.
`S9W` — result for “relative binding score”: 72.3%.
`E130R`: “relative binding score” 92.1%.
`V143I`: “relative binding score” 19%.
`I172W`: “relative binding score” 50.3%.
Under “relative binding score”, `R46E` is recorded as 69.9%.
Under “relative binding score”, `E152H` is recorded as 76.9%.
For `H34W`, “relative binding score” read 74.9%.
`A35E`: “relative binding score” 9.75%.
`E89A` — result for “relative binding score”: -3.9%.
Under “relative binding score”, `E127W` is recorded as 80.3%.
Under “relative binding score”, `Q167Y` is recorded as 59.8%.
Under “relative binding score”, `L20D` is recorded as 89.6%.
Under “relative binding score”, `L166R` is recorded as 4.19%.
`V43F`: “relative binding score” 71.5%.
Under “relative binding score”, `I79N` is recorded as 64.5%.

Sample 2
Target: UBE2Q2 UBC core domain (UniProt Q8WVN8)
Chain of UniProt Q8WVN8 (whole entry, looked up): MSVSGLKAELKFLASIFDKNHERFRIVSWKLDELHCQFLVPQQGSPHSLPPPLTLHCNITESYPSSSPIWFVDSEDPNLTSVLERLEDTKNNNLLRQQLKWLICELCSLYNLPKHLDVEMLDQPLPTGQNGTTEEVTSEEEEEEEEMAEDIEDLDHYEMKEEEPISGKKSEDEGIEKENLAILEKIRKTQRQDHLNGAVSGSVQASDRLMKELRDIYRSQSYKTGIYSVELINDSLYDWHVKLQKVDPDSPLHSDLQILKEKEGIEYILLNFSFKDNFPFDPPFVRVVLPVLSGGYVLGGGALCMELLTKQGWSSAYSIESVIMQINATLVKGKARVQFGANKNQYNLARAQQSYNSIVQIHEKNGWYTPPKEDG
Method: yeast two-hybrid
Medium: yeast
Setting: mostly zero background
Relative to: not given
Reading: higher = stronger interaction
B1: TRIM41 RING domain (UniProt Q8WV44); chain PVQTLQEEAVCAICLDYFTDPVSIGCGHNFCRVCVTQLWGGEDEEDRDELDREEEEEDGEEE
B2: ZNRF4 RING domain (UniProt Q8WWF5); chain VRTFTWHNDLCAICLDEYEEGDQLKILPCSHTYHCKCIDPWFSQAPRRSCPVCKQSVAATEDSF
B3: RNF6 RING domain (UniProt Q9Y252); chain NSIDSELGKICSVCISDYVTGNKLRQLPCMHEFHIHCIDRWLSENCTCPICRQPVLGSNIAN
B4: HLTF RING domain (UniProt Q14527); chain LILSSGSDEECAICLDSLTVPVITHCAHVFCKPCICQVIQNEQPHAKCPLCRNDIHEDNLLE
B5: RING1 RING domain (UniProt Q06587); chain SPRSLHSELMCPICLDMLKNTMTTKECLHRFCSDCIVTALRSGNKECPTCRKKLVSKRSLR
B6: ARIH2 RING domain (UniProt O95376); chain HVPTSHPPHHCAVCMQFVRKENLLSLACQHQFCRSCWEQHCSVLVKDGVGVGVSCMAQDCPLRTPEDFVF
B7: RNF103 RING domain (UniProt O00237); chain WPADMLHCTECVVCLENFENGCLLMGLPCGHVFHQNCIVMWLAGGRHCCPVCRWPSYKKKQPY
B8: RNF186 RING domain (UniProt Q9NXI6); chain HSGSTECDLECLVCREPYSCPRLPKLLACQHAFCAICLKLLLCVQDNTWSITCPLCRKVTAVPGGLI
B9: MID2 RING domain (UniProt Q9UJV3); chain KMETLESELTCPICLELFEDPLLLPCAHSLCFSCAHRILVSSCSSGESIEPITAFQCPTCRYVISLNHRGL
B10: MARCHF1 RING domain (UniProt Q8TCQ1); chain TAPRSQSRLSVCPSTQDICRICHCEGDEESPLITPCRCTGTLRFVHQSCLHQWIKSSDTRCCELCKYDFIMETKLKPLRKWE
B11: NFX1 RING domain (UniProt Q12986); chain IEQLTTEKYECMVCCELVRVTAPVWSCQSCYHVFHLNCIKKWARSPASQADGQSGWRCPACQNVSAHVPNTY
B12: ZMYND11 RING domain (UniProt Q15326); chain DEIDWETENHDWYCFECHLPGEVLICDLCFRVYHSKCLSDEFRLRDSSSPWQCPVCRSIKKKNTNKQEM
`B1 (TRIM41 RING domain)`: “lacZ reporter activity” 0.
`ASEEEFQFLRCQQCQAEAKCPKLLPCLHTLCSGCLEASGMQCPICQAPWPLGADTP (PML RING domain (UniProt P29590))`: “lacZ reporter activity” 0.
`B2 (ZNRF4 RING domain)`: “lacZ reporter activity” 0.
Under “lacZ reporter activity”, `B3 (RNF6 RING domain)` is recorded as 0.
`B4 (HLTF RING domain)`: “lacZ reporter activity” 0.
`EIKEYKARLTCPCCNTRKKDAVLTKCFHVFCFECVRGRYEARQRKCPKCNAAFGAHDFHR (RNF40 RING domain (UniProt O75150))`: “lacZ reporter activity” 0.
Under “lacZ reporter activity”, `B5 (RING1 RING domain)` is recorded as 0.
`B6 (ARIH2 RING domain)` — result for “lacZ reporter activity”: 0.
For `B7 (RNF103 RING domain)`, “lacZ reporter activity” read 0.
`B8 (RNF186 RING domain)` — result for “lacZ reporter activity”: 0.
For `B9 (MID2 RING domain)`, “lacZ reporter activity” read 0.
Under “lacZ reporter activity”, `B10 (MARCHF1 RING domain)` is recorded as 0.
Under “lacZ reporter activity”, `B11 (NFX1 RING domain)` is recorded as 0.
`B12 (ZMYND11 RING domain)`: “lacZ reporter activity” 0.

Sample 3
Target: CCNE2, cyclin fold, Cln2 fusion (human)
Method: yeast growth competition, sequencing
Medium: yeast
Setting: strong parent motif
Relative to: not given
Reading: higher = stronger binding
Starting sequence: GMNC docking peptide (human); KNAKRNLSSEFAN; partner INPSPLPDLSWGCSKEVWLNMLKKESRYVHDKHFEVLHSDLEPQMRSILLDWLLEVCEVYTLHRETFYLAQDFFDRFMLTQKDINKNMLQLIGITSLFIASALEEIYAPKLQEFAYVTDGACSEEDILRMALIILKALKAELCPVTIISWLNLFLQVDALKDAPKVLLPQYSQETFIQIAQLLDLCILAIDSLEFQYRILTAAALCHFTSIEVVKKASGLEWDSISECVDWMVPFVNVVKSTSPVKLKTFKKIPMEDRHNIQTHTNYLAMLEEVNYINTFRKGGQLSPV
Under “normalised enrichment score”, `N6I` is recorded as 0.287.
Under “normalised enrichment score”, `S9E` is recorded as 1.63.
`K4H`: “normalised enrichment score” 0.0981.
`K4D`: “normalised enrichment score” -0.133.
`S9C` — result for “normalised enrichment score”: 1.37.
Under “normalised enrichment score”, `S9K` is recorded as 2.09.
`A3Y`: “normalised enrichment score” 1.42.
Under “normalised enrichment score”, `S8T` is recorded as 0.899.
Under “normalised enrichment score”, `K4T` is recorded as 0.285.
`F11Y`: “normalised enrichment score” 0.264.
For `N2D`, “normalised enrichment score” read 1.13.
For `N6W`, “normalised enrichment score” read 0.187.
`F11H`: “normalised enrichment score” 0.000487.
`K4F` — result for “normalised enrichment score”: 0.772.
Under “normalised enrichment score”, `S8P` is recorded as 0.121.
`S8L`: “normalised enrichment score” 2.8.
For `N2C`, “normalised enrichment score” read 1.31.
`S9D`: “normalised enrichment score” 1.28.
`E10W`: “normalised enrichment score” 1.7.
For `S9F`, “normalised enrichment score” read 2.3.

Sample 4
Target: RING finger protein unkempt homolog, zinc fingers 1-6, GST-SBP tag (UNK, Homo sapiens, UniProt Q9C0B0, residues 30-357)
Method: RNA Bind-n-Seq
Molecule type: RNA
Medium: in vitro
Concentration: not given
Setting: RNA with constant flanks, human-mouse chimeric sites, ends assumed
Relative to: input RNA pool
Reading: higher = stronger binding
All sequences stand within: GGGAGUUCUACAGUCCGACGAUC … CAACAGAGGAUUGAGCAUCA
Construct (chain): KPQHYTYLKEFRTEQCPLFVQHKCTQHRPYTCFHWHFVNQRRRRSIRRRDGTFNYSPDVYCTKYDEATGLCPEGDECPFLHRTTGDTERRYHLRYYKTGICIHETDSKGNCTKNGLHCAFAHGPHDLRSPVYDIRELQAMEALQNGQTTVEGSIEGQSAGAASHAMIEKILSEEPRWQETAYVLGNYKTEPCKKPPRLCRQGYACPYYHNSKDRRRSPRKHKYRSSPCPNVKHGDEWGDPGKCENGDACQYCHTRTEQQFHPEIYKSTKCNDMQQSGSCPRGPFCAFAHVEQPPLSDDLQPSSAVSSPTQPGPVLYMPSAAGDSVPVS
The bound/input enrichment of `CUCAGAGACGUGGCAUAUCAGUAUGUGAAAAAGGGGGCUCGUAUAUUUGUGGAAGGGAAAGUGGACUAUGGCGAGUACAUGGAUAAAAACAAUGUGAGGCGGCAAGCAACAACAAUCAUA` is reported as 0.315 ratio.
The bound/input enrichment of `UUCAAAGAAAAGGGCAGCUGUGUCAUUACUUGGGAGACUCUGGGGGAGGGAAAUUCUGUUCUUUUGUUUAAUUUUCCCCCAGAUAAAGCCAAAGUGUGUGUUGAAGAACUGAGAAAAAAU` is reported as 0.326 ratio.
With `UGUGAACUGUCUCUUGAGAUCUAAAAACAAGAUGACUUUUCCUGGCACAUAUUUCAAAGCAUAGACUUUGUUGCCUGCUGCUUAUUGUCUAAUUUACAGGGAUAUUUAAUUUUGUCAGGU` the bound/input enrichment was 0.137 ratio.
The bound/input enrichment of `AACUUCGUGCAUCGGUUUCCUUUUGUAGCUGUUUCAAUUGGCUUCCUUGUGAAUAAAGAGAUGGAGUUUGGAGUUGUGUACAGCUGUGUGGAAGAUAAGAUGUACACCGGCAGGAAAGGG` is reported as 0.43 ratio.
The bound/input enrichment of `UAAGUUAUUUUGUACAGCUUUGUAAAUUGUAUAGCUUUUUAUAUUGCCAUGUUUAUUUUUUUUAGAUAAUUUGGUUCAUUAAGUACAUAGCUAAGGUAAUGAACAUCUUUUUCAGUAAUU` is reported as 2.58 ratio.
The bound/input enrichment of `GACUUUGGAACUGGUCCUCGCAACGCAGCCUUCUAUAGCCCUCAUGGACAUAUAUUAGUGCUGGCUGGAUUUGGAAAUCUUCGAGGACAAAUGGAAGUAUGGGAUGUGAAAAACUACAAG` is reported as 0.303 ratio.
The bound/input enrichment of `CACGUGUCUGCAGUACUUGAUGUGGACUACUCUCCCACUGGGAAGGAAUUUGUGUCUGCCAGCUUUGAUAAGUCUAUUAGAAUCUUUCCUGUAGACAAAAGUCGAAGCAGGGAAGUGUAU` is reported as 0.438 ratio.
`UGUGCCCCACAAGAUCCUACCUGAGUGGCAGCUGAAGUUGACUCCCUCUCCUUGCCUGAACCCCCCCCUUUUGUUCCCCCAUCCCCCAGUGUCGGCUGAGAUGUUGCCUCUGCACGGUUC` gave a bound/input enrichment of 1.28 ratio.
With `GCAAAGGAUGAUGAGGCAGCUGCAGUUGCCCUUUCCUCCCUGAUUCAUGCUUUGGAUGAGUUAAACAUGGUCGCCAUCGUCCGAUAUGCUUAUGACAAAAGAUCUAAUCCUCAAGUUGGU` the bound/input enrichment was 0.0983 ratio.
With `GAUCAUGGAACCAGAAUAGAAAUGAAGAUGAGAUUACCCAGACGAGCCAAAACAGCUAGCACUAGAAAAAGUAAACUUAACCUUGCAGAGUUCCUUAAUGAAGAUACAAGUUAAGAGAGC` the bound/input enrichment was 6.23 ratio.
`UUAAUCCCCUUCGUUGCUCCCCCACUUGUCAUGCUGAUAACAAAGUCUUAUAUCCCCGUCCUAGCUUUCACUCAGAUGGCUUAUGGAGCCGGUUUCCUAGCUUUCUUGGGAGGGAUCAGA` has a bound/input enrichment of 0.293 ratio.

Excerpt of the above (sample 3):
`K4H`: “normalised enrichment score” 0.0981.
`K4D`: “normalised enrichment score” -0.133.
`S9C` — result for “normalised enrichment score”: 1.37.
Under “normalised enrichment score”, `S9K` is recorded as 2.09.
`A3Y`: “normalised enrichment score” 1.42.
Under “normalised enrichment score”, `S8T` is recorded as 0.899.
Under “normalised enrichment score”, `K4T` is recorded as 0.285.
`F11Y`: “normalised enrichment score” 0.264.
For `N2D`, “normalised enrichment score” read 1.13.
